Measured values of several laboratories.
Parts stem from different laboratories: compare values within a part only.
Chain of UniProt P08913 (whole entry, looked up): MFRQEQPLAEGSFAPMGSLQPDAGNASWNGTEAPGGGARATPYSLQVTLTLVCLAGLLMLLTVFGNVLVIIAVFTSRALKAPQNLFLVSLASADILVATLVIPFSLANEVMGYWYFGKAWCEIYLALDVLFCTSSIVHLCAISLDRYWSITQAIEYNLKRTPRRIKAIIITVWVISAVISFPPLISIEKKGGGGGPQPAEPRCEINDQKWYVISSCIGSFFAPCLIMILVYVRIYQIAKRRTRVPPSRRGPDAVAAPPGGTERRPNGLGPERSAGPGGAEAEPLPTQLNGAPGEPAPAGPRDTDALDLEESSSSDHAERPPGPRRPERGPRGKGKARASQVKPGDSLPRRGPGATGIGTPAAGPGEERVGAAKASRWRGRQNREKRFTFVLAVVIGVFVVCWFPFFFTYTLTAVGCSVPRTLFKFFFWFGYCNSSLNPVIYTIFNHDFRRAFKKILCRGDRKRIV
Chain of UniProt P13945 (whole entry, looked up): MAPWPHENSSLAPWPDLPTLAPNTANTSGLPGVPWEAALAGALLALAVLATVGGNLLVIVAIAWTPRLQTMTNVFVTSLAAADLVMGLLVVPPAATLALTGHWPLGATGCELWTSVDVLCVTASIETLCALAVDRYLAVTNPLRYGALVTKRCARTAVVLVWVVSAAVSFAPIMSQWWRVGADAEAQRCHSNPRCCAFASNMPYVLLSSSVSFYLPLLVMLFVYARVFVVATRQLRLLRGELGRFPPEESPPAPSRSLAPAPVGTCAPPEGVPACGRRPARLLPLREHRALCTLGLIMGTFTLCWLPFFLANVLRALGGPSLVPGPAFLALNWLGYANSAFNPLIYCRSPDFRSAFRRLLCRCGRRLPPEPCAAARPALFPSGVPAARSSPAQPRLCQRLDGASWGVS
Chain of UniProt Q06418 (whole entry, looked up): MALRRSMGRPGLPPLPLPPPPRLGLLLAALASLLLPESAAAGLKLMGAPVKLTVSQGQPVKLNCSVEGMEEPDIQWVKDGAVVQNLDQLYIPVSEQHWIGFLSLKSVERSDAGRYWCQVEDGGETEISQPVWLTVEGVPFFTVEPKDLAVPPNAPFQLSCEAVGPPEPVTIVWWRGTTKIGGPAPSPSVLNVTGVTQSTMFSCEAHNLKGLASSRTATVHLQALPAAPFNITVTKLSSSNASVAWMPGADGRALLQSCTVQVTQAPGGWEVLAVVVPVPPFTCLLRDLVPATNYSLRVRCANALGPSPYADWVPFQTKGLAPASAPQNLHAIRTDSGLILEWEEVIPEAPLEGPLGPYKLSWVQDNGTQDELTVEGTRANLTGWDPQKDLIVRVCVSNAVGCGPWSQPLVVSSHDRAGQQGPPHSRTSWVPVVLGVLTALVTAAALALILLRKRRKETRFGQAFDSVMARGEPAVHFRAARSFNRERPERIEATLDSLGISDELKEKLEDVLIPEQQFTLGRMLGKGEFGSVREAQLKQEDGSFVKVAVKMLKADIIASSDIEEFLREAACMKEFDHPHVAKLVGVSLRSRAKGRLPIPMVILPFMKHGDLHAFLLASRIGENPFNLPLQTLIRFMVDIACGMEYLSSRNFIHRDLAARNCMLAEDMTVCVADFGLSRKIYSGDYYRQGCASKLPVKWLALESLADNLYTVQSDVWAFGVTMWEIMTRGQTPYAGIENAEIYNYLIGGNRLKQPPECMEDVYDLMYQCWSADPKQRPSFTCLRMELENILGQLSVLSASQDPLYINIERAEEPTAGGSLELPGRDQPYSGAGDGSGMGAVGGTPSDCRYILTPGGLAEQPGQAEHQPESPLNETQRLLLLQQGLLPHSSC
Chain of UniProt P49760 (whole entry, looked up): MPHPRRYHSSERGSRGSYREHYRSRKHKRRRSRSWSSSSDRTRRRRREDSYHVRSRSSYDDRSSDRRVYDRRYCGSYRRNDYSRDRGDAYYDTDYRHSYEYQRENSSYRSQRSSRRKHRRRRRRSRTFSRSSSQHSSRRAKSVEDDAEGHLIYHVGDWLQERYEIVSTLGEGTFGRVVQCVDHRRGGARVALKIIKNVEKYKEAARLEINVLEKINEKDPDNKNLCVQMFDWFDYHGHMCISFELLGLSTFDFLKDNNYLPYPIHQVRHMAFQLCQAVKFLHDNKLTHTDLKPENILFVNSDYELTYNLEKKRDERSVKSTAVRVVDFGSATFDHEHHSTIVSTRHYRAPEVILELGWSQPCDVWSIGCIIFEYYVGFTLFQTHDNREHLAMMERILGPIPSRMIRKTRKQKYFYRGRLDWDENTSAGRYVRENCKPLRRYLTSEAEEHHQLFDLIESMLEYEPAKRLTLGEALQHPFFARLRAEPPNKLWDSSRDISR
Chain of UniProt P51812 (whole entry, looked up): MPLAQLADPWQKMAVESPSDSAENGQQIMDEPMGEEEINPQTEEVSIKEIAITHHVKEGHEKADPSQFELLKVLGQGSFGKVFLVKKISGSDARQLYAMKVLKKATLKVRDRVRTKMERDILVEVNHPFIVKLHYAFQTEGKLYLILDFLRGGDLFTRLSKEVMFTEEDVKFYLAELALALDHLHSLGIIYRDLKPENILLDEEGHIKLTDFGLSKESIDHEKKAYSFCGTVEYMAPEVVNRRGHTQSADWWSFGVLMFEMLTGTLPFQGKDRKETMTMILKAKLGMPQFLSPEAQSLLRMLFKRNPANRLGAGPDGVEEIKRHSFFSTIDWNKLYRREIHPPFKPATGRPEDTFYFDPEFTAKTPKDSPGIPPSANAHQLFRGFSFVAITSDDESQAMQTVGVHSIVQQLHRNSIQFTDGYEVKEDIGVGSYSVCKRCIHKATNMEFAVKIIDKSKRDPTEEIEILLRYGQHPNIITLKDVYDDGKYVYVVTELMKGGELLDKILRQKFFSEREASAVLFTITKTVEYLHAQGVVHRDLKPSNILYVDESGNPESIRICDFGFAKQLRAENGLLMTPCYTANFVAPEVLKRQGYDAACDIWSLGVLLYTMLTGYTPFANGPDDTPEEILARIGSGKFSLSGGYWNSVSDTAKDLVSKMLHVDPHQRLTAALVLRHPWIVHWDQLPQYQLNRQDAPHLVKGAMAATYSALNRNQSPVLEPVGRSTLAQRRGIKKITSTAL
Chain of UniProt Q9H3N8 (whole entry, looked up): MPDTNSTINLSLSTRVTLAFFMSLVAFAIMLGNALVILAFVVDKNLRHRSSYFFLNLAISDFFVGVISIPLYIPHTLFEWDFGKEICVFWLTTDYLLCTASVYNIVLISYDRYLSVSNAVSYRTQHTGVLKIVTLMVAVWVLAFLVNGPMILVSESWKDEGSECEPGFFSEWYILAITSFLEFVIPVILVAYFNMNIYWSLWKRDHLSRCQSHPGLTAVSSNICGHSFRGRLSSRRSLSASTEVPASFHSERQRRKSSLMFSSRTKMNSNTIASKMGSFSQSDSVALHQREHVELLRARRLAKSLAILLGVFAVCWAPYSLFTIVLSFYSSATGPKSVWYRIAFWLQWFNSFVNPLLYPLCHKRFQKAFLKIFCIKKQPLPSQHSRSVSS
Chain of UniProt Q14012 (whole entry, looked up): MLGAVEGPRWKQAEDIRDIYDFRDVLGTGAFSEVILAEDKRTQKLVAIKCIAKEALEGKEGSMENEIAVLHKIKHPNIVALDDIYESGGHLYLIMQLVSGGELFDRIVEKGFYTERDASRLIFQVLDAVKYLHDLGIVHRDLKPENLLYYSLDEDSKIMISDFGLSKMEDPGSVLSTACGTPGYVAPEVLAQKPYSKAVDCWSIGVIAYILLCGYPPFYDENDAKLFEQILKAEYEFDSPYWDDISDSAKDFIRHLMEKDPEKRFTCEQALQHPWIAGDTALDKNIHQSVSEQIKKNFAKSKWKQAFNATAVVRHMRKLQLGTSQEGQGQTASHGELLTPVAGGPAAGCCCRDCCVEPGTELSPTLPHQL
Chain of UniProt P49674 (whole entry, looked up): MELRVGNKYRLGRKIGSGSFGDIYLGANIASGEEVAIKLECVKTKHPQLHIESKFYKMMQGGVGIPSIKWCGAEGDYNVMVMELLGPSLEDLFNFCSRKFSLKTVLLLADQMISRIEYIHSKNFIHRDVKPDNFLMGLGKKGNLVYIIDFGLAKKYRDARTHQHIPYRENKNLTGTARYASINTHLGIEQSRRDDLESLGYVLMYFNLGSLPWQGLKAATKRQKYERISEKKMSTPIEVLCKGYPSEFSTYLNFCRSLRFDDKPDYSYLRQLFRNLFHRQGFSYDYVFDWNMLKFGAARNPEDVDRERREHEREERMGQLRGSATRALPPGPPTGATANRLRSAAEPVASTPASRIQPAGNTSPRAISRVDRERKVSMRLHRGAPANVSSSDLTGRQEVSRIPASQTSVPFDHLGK
Chain of UniProt Q9NYL2 (whole entry, looked up): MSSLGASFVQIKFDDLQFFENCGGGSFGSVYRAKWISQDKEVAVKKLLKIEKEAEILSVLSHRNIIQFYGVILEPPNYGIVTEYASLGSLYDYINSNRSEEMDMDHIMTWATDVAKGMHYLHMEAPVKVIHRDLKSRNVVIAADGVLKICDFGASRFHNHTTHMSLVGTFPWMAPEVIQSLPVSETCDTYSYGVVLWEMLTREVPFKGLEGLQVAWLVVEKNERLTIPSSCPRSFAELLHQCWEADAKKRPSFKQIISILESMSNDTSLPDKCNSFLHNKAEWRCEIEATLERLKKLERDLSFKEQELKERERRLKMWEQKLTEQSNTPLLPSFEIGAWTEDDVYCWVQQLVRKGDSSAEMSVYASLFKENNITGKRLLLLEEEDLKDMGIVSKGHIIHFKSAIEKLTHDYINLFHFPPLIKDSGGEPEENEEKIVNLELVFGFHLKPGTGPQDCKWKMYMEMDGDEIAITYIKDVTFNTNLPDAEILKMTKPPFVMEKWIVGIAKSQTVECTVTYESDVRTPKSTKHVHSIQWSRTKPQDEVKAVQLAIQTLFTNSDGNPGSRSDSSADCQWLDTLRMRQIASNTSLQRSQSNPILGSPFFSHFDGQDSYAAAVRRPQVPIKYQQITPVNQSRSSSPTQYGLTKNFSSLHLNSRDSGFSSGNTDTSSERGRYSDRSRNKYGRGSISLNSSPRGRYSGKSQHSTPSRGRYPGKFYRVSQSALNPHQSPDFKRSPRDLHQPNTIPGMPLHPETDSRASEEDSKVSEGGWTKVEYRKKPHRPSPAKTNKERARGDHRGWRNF

Series 1
Structure (SMILES): Cc1cc(NC(=O)c2cccc(S(F)(F)(F)(F)F)c2)cc(-n2ccn3nc(-c4cccnc4)cc23)c1
Effect on: ligand displacement
Method: radioligand
Tested at: 10 µM
target	inhibition [%]
ADRA1D (Homo sapiens, UniProt P25100)	8.58
TMEM97 (Homo sapiens, UniProt Q5BJF2)	34.6
HRH4 (Homo sapiens, UniProt Q9H3N8)	0.0286
HTR7 (Homo sapiens, UniProt P34969)	-4.45
SIGMAR1 (Homo sapiens, UniProt Q99720)	24.3
ADRB1 (Homo sapiens, UniProt P08588)	-11.7
ADRA2B (Homo sapiens, UniProt P18089)	34.4
ADRA2A (Homo sapiens, UniProt P08913)	18.1
ADRB2 (Homo sapiens, UniProt P07550)	-6.09
ADRB3 (Homo sapiens, UniProt P13945)	14.3

Series 2
Sample: hydrocarbon/water
SMILES	logD
CCOC(=O)[C@@H]1CSCC(=O)N[C@H](CC)C(=O)N(C)[C@@H](C)C(=O)N[C@@H](CC(C)C)C(=O)N2CCC[C@H]2C(=O)N(CC(C)C)CC(=O)N[C@@H](CC(C)C)C(=O)N(C)[C@@H](C)C(=O)N[C@@H](CC(C)C)C(=O)N1C	0.905
CCC[C@@H]1NC(=O)[C@H](C)N(C)C(=O)[C@H](CC(C)C)NC(=O)Cn2cc(nn2)CN(C)C(=O)[C@H](CC(C)C)NC(=O)[C@H](C)N(C)C(=O)[C@H](CC2CCCCC2)NC(=O)[C@H](CC)N(C)C(=O)[C@H]2CCCN2C1=O	0.653
CC(C)CC1NC(=O)CN(CC2CCOCC2)C(=O)C2CCCN2C(=O)C(CC(C)C)NC(=O)C(C)N(C)C(=O)C(CC(C)C)NC(=O)CN(CCCOC(C)C)C(=O)C2CCCN2C(=O)C(Cc2ccccc2)NC(=O)C(C)N(C)C1=O (stereo not drawn)	2.39
CCN1CC(=O)N[C@@H](CC(C)C)C(=O)N2CCC[C@@H]2C(=O)N(C)[C@@H](C)C(=O)N[C@@H](CC(C)C)C(=O)N(C)[C@@H](C)C(=O)N[C@@H](CC(C)C)C(=O)N(C)Cc2cn(nn2)CC(=O)N[C@@H](CC(C)C)C1=O	-0.66
CCC[C@@H]1NC(=O)CN(CC)C(=O)[C@H](CC(C)C)NC(=O)Cn2cc(nn2)CN(C)C(=O)[C@H](CC(C)C)NC(=O)[C@H](C)N(C)C(=O)[C@H](CC(C)C)NC(=O)[C@H](C)N(C)C(=O)[C@H]2CCCN2C1=O	-1.2

Series 3
Target: Diamine acetyltransferase 1 (Homo sapiens, UniProt P21673)
Mode: inhibitor
Tested at: 10 µM
Reference: control
Residues (P21673 1-171): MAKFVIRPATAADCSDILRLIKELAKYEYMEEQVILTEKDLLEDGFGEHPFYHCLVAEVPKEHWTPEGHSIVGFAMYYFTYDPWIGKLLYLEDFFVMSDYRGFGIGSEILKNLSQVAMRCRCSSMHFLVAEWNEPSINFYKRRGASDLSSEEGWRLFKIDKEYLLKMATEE
SMILES	remaining activity [%]
O=c1c(-c2ccccc2)coc2ccccc12	96
O=C(O)/C=C/c1ccc(O)cc1	90.6
CCCCCCCCCCCCCCC(=O)O	85.9
CC(C)[C@@H](C)/C=C/[C@@H](C)[C@H]1CC[C@H]2C3=CC=C4C[C@@H](O)CC[C@]4(C)[C@H]3CC[C@]12C	103
CCOC(=O)/C=C/c1ccccc1	98.7
CCCCCC/C=C\CCCCCCCc1cccc(O)c1C(=O)O	94.8
C/C=C/c1ccc(OC)c(OC)c1	91.8
Oc1cc(O)c2c(c1)OC(c1ccc(O)c(O)c1)C(OC1(c3ccc(O)c(O)c3)Oc3cc(O)cc(O)c3C(O)C1O)C2 (stereo not drawn)	90.3
O=c1cc(-c2ccc(O)cc2)oc2cc(O)c([C@@H]3O[C@H](CO)[C@@H](O)[C@H](O)[C@H]3O)c(O)c12	114
C=CCc1cc(OC)c(O[C@@H](C)[C@H](O)c2ccc(O)c(OC)c2)c(OC)c1	92.3

Series 4
Compound: C[S+]([O-])c1ccc(-c2nc(-c3ccncc3)c(-c3ccc(F)cc3)[nH]2)cc1 (stereo not drawn)
Effect on: enzyme activity
Mode: inhibitor
Tested at: 0.5 µM
Reference: control
target	remaining activity
PAK1 (Homo sapiens, UniProt Q13153)	99.2%
DYRK1A (Homo sapiens, UniProt Q13627)	95.6%
MAP3K20 (Homo sapiens, UniProt Q9NYL2)	100%
TYRO3 (Homo sapiens, UniProt Q06418)	97%
YES1 (Homo sapiens, UniProt P07947)	92.6%
CAMK1 (Homo sapiens, UniProt Q14012)	106%
BRSK2 (Homo sapiens, UniProt Q8IWQ3)	101%
RPS6KB2 (Homo sapiens, UniProt Q9UBS0)	97.2%
IGF1R (Homo sapiens, UniProt P08069)	94.3%
PRKCZ (Homo sapiens, UniProt Q05513)	103%
CAMKK1 (Homo sapiens, UniProt Q8N5S9)	125%
PIM1 (Homo sapiens, UniProt P11309)	103%
CSNK1E (Homo sapiens, UniProt P49674)	31%
JAK1 (Homo sapiens, UniProt P23458)	105%
SGK2 (Homo sapiens, UniProt Q9HBY8)	106%
ERBB2 (Homo sapiens, UniProt P04626)	94.6%
RPS6KA3 (Homo sapiens, UniProt P51812)	95.7%
MUSK (Homo sapiens, UniProt O15146)	90.3%
CLK2 (Homo sapiens, UniProt P49760)	108%
PAK5 (Homo sapiens, UniProt Q9P286)	104%

Repeated from above (series 4):
target	remaining activity
CAMKK1 (Homo sapiens, UniProt Q8N5S9)	125%
PIM1 (Homo sapiens, UniProt P11309)	103%
CSNK1E (Homo sapiens, UniProt P49674)	31%
JAK1 (Homo sapiens, UniProt P23458)	105%
